Results from different studies.
Parts stem from different laboratories: compare values within a part only. “And” joins repeats or separate records; there may be more than shown.

Block 1 — observed: ligand displacement; tested at: 10 µM
Target: Sigma intracellular receptor 2 (TMEM97, Homo sapiens, UniProt Q5BJF2)
Chain of UniProt Q5BJF2 (whole entry, looked up): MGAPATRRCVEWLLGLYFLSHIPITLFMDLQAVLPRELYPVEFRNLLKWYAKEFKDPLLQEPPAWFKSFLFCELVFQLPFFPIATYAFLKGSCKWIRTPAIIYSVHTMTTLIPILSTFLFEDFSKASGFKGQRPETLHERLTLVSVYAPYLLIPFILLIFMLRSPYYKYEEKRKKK
| SMILES | inhibition |
| --- | --- |
| CN([C@@H]1CCc2c(CC(=O)O)c3ccccc3n2C1)S(=O)(=O)c1ccc(F)cc1 | -9.73% |
| O=C(NCCCC1CCCCC1)c1ccc(CNC(=O)c2cnn(-c3ccccc3)c2C(F)(F)F)cc1 | 54.8% |
| CCC(F)(F)c1cc(N2CCC(S(C)(=O)=O)CC2)nc2sc(C(N)=O)c(N)c12 | 34.5% |
| CC1=C(C#N)C(c2ccc3[nH]nc(C)c3c2)C(C#N)=C(C)N1 | 23.9% |
| C[C@@H]1CN(c2cc(-c3n[nH]c4ccc(OC5(C)CC5)cc34)ncn2)C[C@H](C)O1 | 50.4% |
| c1ccc(N2CCN(Cc3nc4ccccc4[nH]3)CC2)nc1 | -32.4% |
| Cn1nc(C(=O)NCc2ccc(C(=O)O)cc2)cc1-c1ccc2[nH]ccc2c1 | -10.8% |
| C[C@H](c1ccnc(Nc2nc3ccc(-c4cc(N(C)C)ncn4)cc3[nH]2)c1)N1CCN(C(=O)CC(F)(F)F)CC1 | 54.1% |
| N#CC1(c2ccccn2)CCN(Cc2cc(C(=O)N3CCCC3)c(=O)n3ccccc23)CC1 | 24.1% |
| NS(=O)(=O)c1cc(NC(=O)Cc2ccccc2)ccc1Oc1cccc(Cl)c1 | 59.5% |
| CCOc1ccc(S(=O)(=O)Nc2ccc(Cl)cc2C#Cc2cnc(C(=O)O)cc2OC)c2ncccc12 | -20.9% |
| CCC(=NO)C(C)=Cc1ccc(F)c(C)c1 | 33.4% |
| Cc1ncc(-c2cc(Cl)ccc2F)cc1-n1c(=O)n(CC(N)=O)c2ccccc21 | 41.6% |

Block 2 — observed: enzyme activity; action: inhibitor; tested at: 0.5 µM; reference: control
Target: Serine/threonine-protein kinase pim-3 (PIM3, Homo sapiens, UniProt Q86V86)
| Structure (SMILES) | remaining activity [%] |
| --- | --- |
| O=C1NC(=O)/C(=C/c2ccc3c(c2)OC(F)(F)O3)S1 | 39.8 |
| NC(=O)c1cccc(-c2cc(Nc3ccc(OC(F)(F)F)cc3)ncn2)c1 | 88.6 |
| c1cc(-c2cnn3cc(-c4ccc(OCCN5CCCCC5)cc4)cnc23)ccn1 | 83.8 |
| O=Nc1c(-c2c(O)[nH]c3ccccc23)[nH]c2ccccc12 | 73.6 |
| CC(C)(C)c1nc2c3cc[nH]c(=O)c3c3cc(F)ccc3c2[nH]1 | 33.9 |
| CCN(CC)CCCCN1c2ccccc2Oc2ccc(Cl)cc21 | 37.8 |
| O=C(c1ccccc1)c1ccc(N2CCOCC2)cc1O | 98.9 |
| CC(C)n1cnc2c(Nc3cccc(Cl)c3)nc(NCCO)nc21 | 90.4 |
| N#C/C(=C(/N)SC1C=CC=CC1)c1cccc(C(O)c2ccncc2)c1 (stereo not shown) | 112 |
| C[C@@H](N)[C@H]1CC[C@H](C(=O)Nc2ccncc2)CC1 | 97 |
| CNc1cc2c(Nc3cccc(Br)c3)ncnc2cn1 | 55.2 |

Block 3 — cell line: A-375; tested at: 100 µM; time: 18 h
| SMILES | viability |
| --- | --- |
| O=C(NCCN1CCOCC1)c1ccc(Cl)cc1 | 103% |
| CC(=O)[C@H]1CC[C@H]2[C@@H]3CCC4=CC(=O)CC[C@]4(C)[C@H]3CC[C@]12C | 26.9% |
| O=C(NC(Cc1cc(=O)[nH]c2ccccc12)C(=O)O)c1ccc(Cl)cc1 (stereo not shown) | 107% |
| CC1(C)C(C=C(Cl)Cl)C1C(=O)OCc1cccc(Oc2ccccc2)c1 (stereo not shown) | 60.5% |
| Cn1c(=O)cc(N2CCC[C@@H](N)C2)n(Cc2cc(F)ccc2C#N)c1=O | 84.9% and 84.8% |
| O=C(NCCO[N+](=O)[O-])c1cccnc1 | 93.9% |
| CC1=NN(c2ccc(C)c(C)c2)C(=O)/C1=N\Nc1cccc(-c2cccc(C(=O)O)c2)c1O | 47.8% |
| COc1ccc(/C=C/C(=O)Nc2ccccc2C(=O)O)cc1OC | 70.8% |
| CC(C)(C)c1nc(-c2cccc(NS(=O)(=O)c3c(F)cccc3F)c2F)c(-c2ccnc(N)n2)s1 | 96% |
| CC(=O)NS(=O)(=O)c1ccc(NC(=O)c2ccccc2C(=O)O)cc1 | 83.6% |
| COc1cc(O)c(C(=O)Nc2nc(C(=O)NCCN(C(C)C)C(C)C)cs2)cc1OC | 103% |

Block 4 — species: mouse; sample: microsomes or S9; tested at: 2 µM; time: 0.5 h
| Structure (SMILES) | remaining compound [%] |
| --- | --- |
| Cc1c(C)n2c3c(=O)[nH]c(=O)n(C)c3nc2n1Cc1ccco1 | 19.7 |
| CC(C)COC(C)C(=O)NCCNC(=O)C(C)C (stereo not shown) | 37.9 |
| c1ccc(Cn2ncc3/c(=N/c4cccc5ccccc45)nc[nH]c32)cc1 | 22.2 |
| Cc1ccc(-c2n[nH]c3c2C(c2cccnc2)N(c2ccc(Cl)cc2)C3=O)cc1 (stereo not shown) | 9.1 |
| COc1ccc(/N=C2\C(N3CCCCC3)C3(CCCCC3)C(=O)N2c2ccc(Cl)cc2)cc1 (stereo not shown) | 45.3 |
| O=C(c1ccc(OC(c2ccc(Cl)cc2)c2ccccc2Cl)c(F)c1)N1CC(O)C(O)C1 (stereo not shown) | 66.8 |
| CCOc1cc(/C=N/n2cnnc2)ccc1OCCOCCOc1ccc(C)cc1 | 40.1 |
| Nc1nn(Cc2ccc(F)cc2Cl)cc1Cl | 58.9 |

Some of these lines once more (block 2):
| Structure (SMILES) | remaining activity [%] |
| --- | --- |
| N#C/C(=C(/N)SC1C=CC=CC1)c1cccc(C(O)c2ccncc2)c1 (stereo not shown) | 112 |
| O=Nc1c(-c2c(O)[nH]c3ccccc23)[nH]c2ccccc12 | 73.6 |
| c1cc(-c2cnn3cc(-c4ccc(OCCN5CCCCC5)cc4)cnc23)ccn1 | 83.8 |
